Experimental data from different studies.
Protocols differ between the studies behind these lines. ± marks the error that the study gave.
B1: enzyme A172S/A173G/A497K/C179K/M174T/Q178P (Streptomyces platensis, UniProt A0A0A0V031); chain MQHTTIGDVLREHRRSHPGRTALVDGPVRLTWPELDDRVNRLAGSLAASGIGRGDRIMWLGQNSFRVYELIAAAGKLGAMVCVGYWRWAPPEMEFALRDFDPHLVVWQHQEIHETVARTREALGSDDTARWLRHDSAPQDPDGYEAFLAAGGLADPDLDIDPDSPVLVLYTSGTSGRPKGSLLSHTNLIAMATAAAWLGDIDHTTAFLNSGPMFHIGNHQFWGMPTLLMAGKNVIVRRVVAEEVRDLLVAEECTHAFLMPPTVAEIVRLNRDTGHDLSRLRATVAPHLWEGMATTDTSRFTRSGAAAGRGYGQTELSGFAVTAAYGGPAAGNAGRPGPGLTVRVLDTAGRECAVGEAGEICARGTVVHRGYWNRDEVNAHRFRSGWWHTTDLGRREPDGSLTFLGTTTRMLKSAAENIFPAEVENCIEQHPAVREAAVIGVPNTRWAQDVKAVVVLEPDAGVSEQEIIDHCRPRIASYKKPKSVAFAAALPRTVSGKRDYDALDKEYGGGGYPGAATLGPGR
B2: SULT2A1 (Homo sapiens, UniProt Q06520); chain MSDDFLWFEGIAFPTMGFRSETLRKVRDEFVIRDEDVIILTYPKSGTNWLAEILCLMHSKGDAKWIQSVPIWERSPWVESEIGYTALSETESPRLFSSHLPIQLFPKSFFSSKAKVIYLMRNPRDVLVSGYFFWKNMKFIKKPKSWEEYFEWFCQGTVLYGSWFDHIHGWMPMREEKNFLLLSYEELKQDTGRTIEKICQFLGKTLEPEELNLILKNSSFQSMKENKMSNYSLLSVDYVVDKAQLLRKGVSGDWKNHFTVAQAEDFDKLFQEKMADLPRELFPWE
B3: enzyme E416A (Streptomyces platensis, UniProt A0A0A0V031); chain MQHTTIGDVLREHRRSHPGRTALVDGPVRLTWPELDDRVNRLAGSLAASGIGRGDRIMWLGQNSFRVYELIAAAGKLGAMVCVGYWRWAPPEMEFALRDFDPHLVVWQHQEIHETVARTREALGSDDTARWLRHDSAPQDPDGYEAFLAAGGLADPDLDIDPDSPVLVLYTAAMSGRQCGSLLSHTNLIAMATAAAWLGDIDHTTAFLNSGPMFHIGNHQFWGMPTLLMAGKNVIVRRVVAEEVRDLLVAEECTHAFLMPPTVAEIVRLNRDTGHDLSRLRATVAPHLWEGMATTDTSRFTRSGAAAGRGYGQTELSGFAVTAAYGGPAAGNAGRPGPGLTVRVLDTAGRECAVGEAGEICARGTVVHRGYWNRDEVNAHRFRSGWWHTTDLGRREPDGSLTFLGTTTRMLKSAAANIFPAEVENCIEQHPAVREAAVIGVPNTRWAQDVKAVVVLEPDAGVSEQEIIDHCRPRIASYKKPKSVAFAAALPRTVSGARDYDALDKEYGGGGYPGAATLGPGR
B4: Slc18a2 (Rattus norvegicus, UniProt Q01827); chain MALSDLVLLRWLRDSRHSRKLILFIVFLALLLDNMLLTVVVPIIPSYLYSIKHEKNSTEIQTTRPELVVSTSESIFSYYNNSTVLITGNATGTLPGGQSHKATSTQHTVANTTVPSDCPSEDRDLLNENVQVGLLFASKATVQLLTNPFIGLLTNRIGYPIPMFAGFCIMFISTVMFAFSSSYAFLLIARSLQGIGSSCSSVAGMGMLASVYTDDEERGKPMGIALGGLAMGVLVGPPFGSVLYEFVGKTAPFLVLAALVLLDGAIQLFVLQPSRVQPESQKGTPLTTLLKDPYILIAAGSICFANMGIAMLEPALPIWMMETMCSRKWQLGVAFLPASISYLIGTNIFGILAHKMGRWLCALLGMVIVGISILCIPFAKNIYGLIAPNFGVGFAIGMVDSSMMPIMGYLVDLRHVSVYGSVYAIADVAFCMGYAIGPSAGGAIAKAIGFPWLMTIIGIIDIAFAPLCFFLRSPPAKEEKMAILMDHNCPIKRKMYTQNNVQSYPIGDDEESESD
B5: enzyme (Flavobacterium johnsoniae, UniProt A5FLV3); chain KNKMIYLSAALVFAFFTSCKNETQTSASNSSQTEEYVGKEISTDHDAEIDKLISQMTLEEKIGMLHGNSMFANAGVKRLGIPELKMADGPLGVREEISRDNWAPAGWTNDFATYYPAGGALAATWNAEMAHTFGTSLGEELRARDKDMLLSPAINMVRTPLGGRTYEYMSEDPFLNKKIAVPLVVGLQEKDVMACVKHYAANNQETNRDFVDVQIDERTLREIYLPAFEATVKEAKAYSIMGAYNKFRGEYLCENDYMLNKILRDEWGFKGVVVSDWAAVHSTAKSLKNGLDIEMGTPKPFNEFFLADKLIAAVKSGEVSEKEIDLHVKRILRVLFQVKAMGGGERAKGSIATEAHYQDAYKIAAEAIILLKNENNALPLKLDGVKSIAVIGNNATKKNALGGFGAGVKTKREVTPLEGLKNRLPSSVKINYAEGYLEKYEEKNKGNLGNITSTGPVTIDKLDPAKVQEAVEAAKKSDVAIIFAGSNRDYETEASDRRDLHLPFGQEELIKKVIEANPKTIVVMIAGAPFDLNEVSQKSSALVWSWFNGSEGGNALADVILGKVNPSGKLPWTMPKQLKDSPAHATNSFPGDKAVNYAEGILIGYRWFDTKNVAPLYPFGYGLSYTTFALDNAKTDKDSYAQNDVIEVTVDVKNTGKVDGKEVVQLYTSKSDSKITRAAQELKGFKKADVKAGGSEKITIKVPVKELAYYDVAAKKWTVEPGKYTIKLGTSSRDIKKEINFTIK
B6: PTPN2 (Homo sapiens, UniProt P17706); chain MPTTIEREFEELDTQRRWQPLYLEIRNESHDYPHRVAKFPENRNRNRYRDVSPYDHSRVKLQNAENDYINASLVDIEEAQRSYILTQGPLPNTCCHFWLMVWQQKTKAVVMLNRIVEKESVKCAQYWPTDDQEMLFKETGFSVKLLSEDVKSYYTVHLLQLENINSGETRTISHFHYTTWPDFGVPESPASFLNFLFKVRESGSLNPDHGPAVIHCSAGIGRSGTFSLVDTCLVLMEKGDDINIKQVLLNMRKYRMGLIQTPDQLRFSYMAIIEGAKCIKGDSSIQKRWKELSKEDLSPAFDHSPNKIMTEKYNGNRIGLEEEKLTGDRCTGLSSKMQDTM
UniProt P09470, sequence (whole entry, looked up): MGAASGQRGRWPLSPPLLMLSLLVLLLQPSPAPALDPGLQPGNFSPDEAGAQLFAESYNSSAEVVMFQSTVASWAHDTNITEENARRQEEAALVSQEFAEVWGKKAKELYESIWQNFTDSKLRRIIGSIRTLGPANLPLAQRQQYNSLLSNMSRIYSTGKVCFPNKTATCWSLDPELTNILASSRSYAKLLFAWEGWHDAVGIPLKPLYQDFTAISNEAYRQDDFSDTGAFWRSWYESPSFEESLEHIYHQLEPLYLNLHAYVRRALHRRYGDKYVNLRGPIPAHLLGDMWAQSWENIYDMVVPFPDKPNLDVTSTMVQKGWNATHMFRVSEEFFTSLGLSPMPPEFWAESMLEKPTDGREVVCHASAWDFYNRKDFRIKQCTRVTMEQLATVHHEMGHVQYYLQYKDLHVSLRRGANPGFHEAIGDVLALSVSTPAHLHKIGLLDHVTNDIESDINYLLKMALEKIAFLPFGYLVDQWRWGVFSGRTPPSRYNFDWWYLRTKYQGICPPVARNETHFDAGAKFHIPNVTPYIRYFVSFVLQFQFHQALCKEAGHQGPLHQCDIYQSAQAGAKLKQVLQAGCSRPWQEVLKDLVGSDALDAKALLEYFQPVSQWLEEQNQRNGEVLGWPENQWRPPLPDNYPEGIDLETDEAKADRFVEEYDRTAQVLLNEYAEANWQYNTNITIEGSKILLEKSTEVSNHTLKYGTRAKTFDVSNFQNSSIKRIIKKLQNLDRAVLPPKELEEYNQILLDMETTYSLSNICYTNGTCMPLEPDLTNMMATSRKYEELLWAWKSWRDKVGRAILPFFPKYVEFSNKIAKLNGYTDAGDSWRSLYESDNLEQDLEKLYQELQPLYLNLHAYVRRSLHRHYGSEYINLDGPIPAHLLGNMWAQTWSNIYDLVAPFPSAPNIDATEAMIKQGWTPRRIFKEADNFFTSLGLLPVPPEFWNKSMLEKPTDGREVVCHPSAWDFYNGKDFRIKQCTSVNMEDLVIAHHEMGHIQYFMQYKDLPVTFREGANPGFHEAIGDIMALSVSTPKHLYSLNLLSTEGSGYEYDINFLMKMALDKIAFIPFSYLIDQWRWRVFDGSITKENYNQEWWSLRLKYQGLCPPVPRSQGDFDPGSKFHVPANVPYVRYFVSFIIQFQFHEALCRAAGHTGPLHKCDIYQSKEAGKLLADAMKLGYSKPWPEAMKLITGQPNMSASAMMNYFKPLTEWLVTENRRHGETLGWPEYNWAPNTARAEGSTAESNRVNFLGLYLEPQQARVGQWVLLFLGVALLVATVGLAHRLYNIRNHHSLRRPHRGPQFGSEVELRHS
UniProt Q8VYV7, sequence (whole entry, looked up): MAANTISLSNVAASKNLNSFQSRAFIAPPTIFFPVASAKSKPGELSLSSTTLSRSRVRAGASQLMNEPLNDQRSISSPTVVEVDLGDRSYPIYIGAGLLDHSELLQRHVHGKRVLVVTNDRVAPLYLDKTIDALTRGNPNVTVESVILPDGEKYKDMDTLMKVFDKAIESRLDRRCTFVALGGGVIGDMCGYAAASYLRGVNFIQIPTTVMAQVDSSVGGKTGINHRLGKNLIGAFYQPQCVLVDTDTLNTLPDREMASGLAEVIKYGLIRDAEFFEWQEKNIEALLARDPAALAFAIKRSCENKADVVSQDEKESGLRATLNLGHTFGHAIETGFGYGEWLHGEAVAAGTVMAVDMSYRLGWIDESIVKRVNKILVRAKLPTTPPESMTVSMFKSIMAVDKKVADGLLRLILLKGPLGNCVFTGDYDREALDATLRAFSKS

| Substance | tested on | assay | system | conditions | measurement | value |
| --- | --- | --- | --- | --- | --- | --- |
| ACTAGTCCTTACTAATGAGAAGAAAT (dsDNA) | LiaR D50E/D191N (Enterococcus faecalis, UniProt R3G073) | MST | double-stranded DNA, one strand shown | – | Kd | 16.1 ± 2.1 µM |
| B1 | C[C@@]12CCC[C@@](C)(C(=O)OP(=O)(O)OC[C@H]3O[C@@H](n4cnc5c(N)ncnc54)[C@H](O)[C@@H]3O)[C@H]1C[C@@H](O)[C@]13C[C@H]4C[C@H](O[C@@]4(C)C1)[C@@H]23 | steady-state kinetics | – | pH 7.8, 25 °C | Km | 0.71 µM |
| B2 (SULT2A1) | C[C@]12CC[C@H](O)CC1CCC1C2[C@H](O)C(=O)[C@]2(C)[C@@H](c3ccc(=O)oc3)CC[C@]12O | steady-state kinetics | – | pH 7.4, 37 °C, sulfation by SULT2A1, not purified | Km | 39.6 µM |
| DHQS (Arabidopsis thaliana, UniProt Q8VYV7) | O=C(O)C(=O)C[C@@H](O)[C@H](O)[C@H](O)COP(=O)(O)O | steady-state kinetics | – | apparent | Km | 2.4 µM |
| B3 (enzyme E416A) | C[C@@]12CCC[C@@](C)(C(=O)OP(=O)(O)OC[C@H]3O[C@@H](n4cnc5c(N)ncnc54)[C@H](O)[C@@H]3O)[C@H]1C[C@@H](O)[C@]13C[C@H]4C[C@H](O[C@@]4(C)C1)[C@@H]23 | steady-state kinetics | – | pH 7.8, 25 °C | Km | 0.42 µM |
| ACE C-domain (Mus musculus, UniProt P09470) | CC(C)C[C@H](NC(=O)c1ccccc1N)C(=O)N[C@@H](Cc1ccccc1)C(=O)N[C@@H](CCCCNc1ccc([N+](=O)[O-])cc1[N+](=O)[O-])C(=O)O | steady-state kinetics | – | 37 °C | Km | 10.6 µM |
| B4 (Slc18a2) | NCCc1cc(=O)oc2cc(N)ccc12 | steady-state kinetics | – | not purified | Km | 13.7 µM |
| B5 (enzyme) | CC(C)=CCC[C@](C)(O[C@@H]1O[C@H](CO[C@@H]2O[C@H](CO)[C@@H](O)[C@H](O)[C@H]2O)[C@@H](O)[C@H](O)[C@H]1O)[C@H]1CC[C@]2(C)[C@@H]1[C@H](O)C[C@@H]1[C@@]3(C)CC[C@H](O[C@@H]4O[C@H](CO)[C@@H](O)[C@H](O)[C@H]4O[C@@H]4O[C@H](CO)[C@@H](O)[C@H](O)[C@H]4O)C(C)(C)[C@@H]3CC[C@]12C | steady-state kinetics | – | pH 6, 37 °C, apparent | Km | 2840 µM |
| AGAAATCGTTCTTAAGTCCTATGACA (dsDNA) | LiaR DNA-binding domain D191N (Enterococcus faecalis, UniProt R3G073) | MST | double-stranded DNA, one strand shown | – | Kd | 4.06 ± 0.76 µM |
| B6 (PTPN2) | CCCC[C@H](NC(=O)[C@H](CC(=O)O)NC(=O)[C@H](CC(=O)O)NC(=O)[C@H](CCC(=O)O)NC(=O)[C@H](Cc1ccc(OP(=O)(O)O)cc1)NC(=O)[C@H](CC(=O)O)NC(=O)[C@H](CC(=O)O)NC(=O)[C@H](CCC(=O)O)NC(=O)[C@H](CC(C)C)NC(=O)[C@H](CCC(=O)O)NC(=O)[C@H](CCC(=O)O)NC(=O)c1ccc2c(c1)C1(OC2=O)c2ccc(O)cc2Oc2cc(O)ccc21)C(=O)N[C@@H](CCC(=O)O)C(=O)N[C@@H](CCC(=O)O)C(N)=O | steady-state kinetics | – | 21 °C | Km | 0.29 µM |
| TATTTAGTTAGATATCTAACTAAATA (dsDNA (Staphylococcus aureus); blunt, self-complementary) | MarR family regulatory protein full length assumed F27L (Staphylococcus aureus, UniProt Q5Y812) | ITC | double-stranded DNA, one strand shown | – | Kd | 1.25 µM |

Some of these lines once more:
| Substance | tested on | assay | system | conditions | measurement | value |
| --- | --- | --- | --- | --- | --- | --- |
| B3 (enzyme E416A) | C[C@@]12CCC[C@@](C)(C(=O)OP(=O)(O)OC[C@H]3O[C@@H](n4cnc5c(N)ncnc54)[C@H](O)[C@@H]3O)[C@H]1C[C@@H](O)[C@]13C[C@H]4C[C@H](O[C@@]4(C)C1)[C@@H]23 | steady-state kinetics | – | pH 7.8, 25 °C | Km | 0.42 µM |
